Measurements gathered from unrelated publications.
Each numbered part is a random draw from the data of one study; scales do not carry over between parts. “And” joins repeats or separate records; there may be more than shown.

Sample 1
Cell line: Gaucher fibroblasts L444P/L444P
Method: 4-MUG hydrolysis, cell lysate
Concentration: 0.1 µM
Baseline: DMSO
The GCase activity of CCOc1ccc2nc(Sc3nc(N4CCOCC4)nc(N4CCOCC4)n3)sc2c1 is reported as 110% and 99.8% and 89.6% and 107%.
The GCase activity of Ic1ccc(Nc2nc(NCCN3CCCCC3)nc(N3CCOCC3)n2)cc1 is reported as 96.6% and 103% and 98% and 114% and 99.3%.
The GCase activity of CCOc1ccc2nc(Sc3nc(NCCN4CCOCC4)nc(Nc4ccc(I)cc4)n3)sc2c1 is reported as 103% and 99.8% and 82.3% and 105%.
Ic1cccc(Nc2nc(NCCN3CCOCC3)nc(N3CCOCC3)n2)c1 has a GCase activity of 102% and 100% and 97.7% and 103% and 94.7% and 95.3%.
With CCN(CC)c1nc(NCCN2CCOCC2)nc(Nc2ccc(I)cc2)n1 the GCase activity was 93% and 100% and 84.8% and 104% and 96.6%.
Ic1ccc(Nc2nc(NCCc3c[nH]c4ccccc34)nc(NCCN3CCOCC3)n2)cc1 gave a GCase activity of 106% and 100% and 96% and 95%.
The GCase activity of Ic1ccc(Nc2nc(NCCN3CCOCC3)nc(NC3CCCCC3)n2)cc1 is reported as 105% and 100% and 90% and 88.2% and 91.2%.
Cc1ccc(Nc2nc(NCCN3CCOCC3)nc(N3CCOCC3)n2)cc1 has a GCase activity of 96.7% and 93.8% and 108% and 105% and 104%.

Sample 2
SMILES: Cc1c(NC(=O)c2cccn(-c3ccc(F)cc3)c2=O)ccc(Oc2ccnc(NC(=O)C3CC3)c2)c1C
Target: Receptor-interacting serine/threonine-protein kinase 3 (RIPK3, Homo sapiens, UniProt Q9Y572)
Sequence of UniProt Q9Y572 (whole entry, looked up): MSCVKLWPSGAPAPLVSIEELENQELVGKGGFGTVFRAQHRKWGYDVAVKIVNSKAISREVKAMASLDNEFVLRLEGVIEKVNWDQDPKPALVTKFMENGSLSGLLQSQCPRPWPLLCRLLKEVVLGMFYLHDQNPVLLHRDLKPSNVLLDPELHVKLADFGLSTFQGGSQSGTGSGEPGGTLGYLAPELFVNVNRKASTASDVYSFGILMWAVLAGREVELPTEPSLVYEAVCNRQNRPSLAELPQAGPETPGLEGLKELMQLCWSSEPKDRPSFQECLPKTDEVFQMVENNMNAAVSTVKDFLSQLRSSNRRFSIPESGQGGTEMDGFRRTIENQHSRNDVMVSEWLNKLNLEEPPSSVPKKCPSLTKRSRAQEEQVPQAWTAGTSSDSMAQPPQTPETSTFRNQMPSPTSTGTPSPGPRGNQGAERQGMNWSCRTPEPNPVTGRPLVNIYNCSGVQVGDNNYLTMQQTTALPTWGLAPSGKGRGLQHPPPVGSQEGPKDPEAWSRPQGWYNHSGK
Effect on: kinase activity
Action: inhibitor
Time: 1 h
It gave 43.3% for inhibition (ADP-Glo; 31.25 nM).
The inhibition was 96.8% (ADP-Glo; 250 nM).
ADP-Glo; 3.906 nM — inhibition: 35.4%.
The inhibition was 99.3% (ADP-Glo kinase; 1000 nM).
It gave 92.8% for inhibition (ADP-Glo; 125 nM).

Sample 3
Target: Cyclin-dependent kinase 12, with cyclin K (CDK12, Homo sapiens, UniProt Q9NYV4)
Sequence of UniProt Q9NYV4 (whole entry, looked up): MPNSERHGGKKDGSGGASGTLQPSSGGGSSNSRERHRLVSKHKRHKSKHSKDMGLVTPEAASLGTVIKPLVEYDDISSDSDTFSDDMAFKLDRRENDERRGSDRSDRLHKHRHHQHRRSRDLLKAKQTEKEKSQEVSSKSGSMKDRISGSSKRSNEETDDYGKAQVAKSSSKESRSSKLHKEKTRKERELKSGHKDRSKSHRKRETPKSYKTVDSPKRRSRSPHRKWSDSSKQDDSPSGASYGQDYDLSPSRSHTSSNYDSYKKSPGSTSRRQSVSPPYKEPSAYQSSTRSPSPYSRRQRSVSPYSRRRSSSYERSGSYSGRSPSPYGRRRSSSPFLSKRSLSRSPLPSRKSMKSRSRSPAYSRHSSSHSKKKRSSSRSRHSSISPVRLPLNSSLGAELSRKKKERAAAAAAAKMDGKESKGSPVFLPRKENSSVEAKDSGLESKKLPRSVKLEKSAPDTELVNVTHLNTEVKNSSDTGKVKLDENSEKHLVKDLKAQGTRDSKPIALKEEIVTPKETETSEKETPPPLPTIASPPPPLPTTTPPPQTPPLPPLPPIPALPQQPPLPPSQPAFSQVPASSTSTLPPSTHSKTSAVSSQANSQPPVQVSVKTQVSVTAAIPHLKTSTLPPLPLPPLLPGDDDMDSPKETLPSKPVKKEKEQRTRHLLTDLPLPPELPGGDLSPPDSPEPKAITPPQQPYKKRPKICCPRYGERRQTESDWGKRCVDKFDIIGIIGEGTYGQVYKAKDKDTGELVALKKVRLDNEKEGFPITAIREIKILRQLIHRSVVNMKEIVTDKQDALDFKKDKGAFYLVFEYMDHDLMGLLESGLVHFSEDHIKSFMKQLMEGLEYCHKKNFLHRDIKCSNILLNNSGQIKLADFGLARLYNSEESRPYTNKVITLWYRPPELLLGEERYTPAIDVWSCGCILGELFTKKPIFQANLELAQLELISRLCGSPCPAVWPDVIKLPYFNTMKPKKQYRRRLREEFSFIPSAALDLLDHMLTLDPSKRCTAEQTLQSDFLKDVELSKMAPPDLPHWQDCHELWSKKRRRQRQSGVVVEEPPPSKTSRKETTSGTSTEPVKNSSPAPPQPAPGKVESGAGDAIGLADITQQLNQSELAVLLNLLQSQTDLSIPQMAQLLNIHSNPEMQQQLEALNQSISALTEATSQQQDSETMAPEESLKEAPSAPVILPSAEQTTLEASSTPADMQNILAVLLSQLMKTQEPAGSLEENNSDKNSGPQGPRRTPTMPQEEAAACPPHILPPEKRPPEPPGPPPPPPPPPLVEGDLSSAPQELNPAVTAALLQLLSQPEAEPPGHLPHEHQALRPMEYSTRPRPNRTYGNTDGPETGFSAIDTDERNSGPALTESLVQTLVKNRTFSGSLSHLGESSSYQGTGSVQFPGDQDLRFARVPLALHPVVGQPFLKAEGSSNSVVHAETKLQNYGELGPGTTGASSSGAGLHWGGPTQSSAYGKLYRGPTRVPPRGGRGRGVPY
Effect on: kinase activity
Action: inhibitor
Method: ADP-Glo
Concentration: 0.0001 µM
For CCn1cnc2c(NCc3nc4cc(Cl)c(Cl)cc4[nH]3)nc(N3CCn4ncnc4C3)nc21, the inhibition was 10.7%.
The inhibition of CCn1cnc2c(NCc3nc4cc(F)c(F)cc4[nH]3)nc(N3CCn4ncnc4C3)nc21 is reported as 11.5%.
CCn1cnc2c(NCc3nc4cc(Cl)c(Cl)cc4[nH]3)nc(N3CCN(C(=O)CNC(C)=O)CC3)nc21 has an inhibition of 3%.
The inhibition of CCn1cnc2c(NCc3nc4cc(Cl)c(Cl)cc4[nH]3)nc(N3CCN(C(C)=O)CC3)nc21 is reported as 9.5%.
The inhibition of CCn1cnc2c(NCc3nc4cc(Cl)c(Cl)cc4[nH]3)nc(N3CCN(C(=O)c4ccncc4)CC3)nc21 is reported as -0.5%.
CCn1cnc2c(NCc3nc4cc(Cl)c(Cl)cc4[nH]3)nc(N3CCN(C(=O)c4ccccc4)CC3)nc21 gave an inhibition of -14.5%.
CCCCOc1nc(NCc2nc3cc(Cl)c(Cl)cc3[nH]2)c2ncn(CC)c2n1 has an inhibition of 7.9%.
With CCn1cnc2c(NCc3nc4cc(Cl)c(Cl)cc4[nH]3)nc(N3CCN(c4ccccn4)CC3)nc21 the inhibition was 7.1%.

Single results of other studies
For Cc1nc(C)c(C=[N+]([O-])C(C)(C)C)nc1C, “CDK5 protein level” read 202 and 123 and 182 and 172 (CDK5; Western blot; MPTP mouse model; 10 mg/kg, unit not given; baseline: β-actin).
Cn1cc(-c2cccc(CN3CCC4(CC3)COc3c4ccc4c3CN([C@H]3CCC(=O)NC3=O)C4=O)c2)cn1: “time to tumour volume 2000 mm3” 36 days and 33 days and 39 days and 25 days and 22 days and 20 days (Crbn I391V mouse, MC-38 tumour; oral, daily, 30 mg/kg, animals reaching endpoint, with: vehicle i.p.).

For quick reference, copied from above (sample 3):
With CCn1cnc2c(NCc3nc4cc(Cl)c(Cl)cc4[nH]3)nc(N3CCN(c4ccccn4)CC3)nc21 the inhibition was 7.1%.
The inhibition of CCn1cnc2c(NCc3nc4cc(Cl)c(Cl)cc4[nH]3)nc(N3CCN(C(=O)c4ccncc4)CC3)nc21 is reported as -0.5%.
